Experimental data from different studies.
Numbered parts are unrelated; each lists some results of a single study.

Sample 1
Target: RNA binding protein fox-1 homolog 2, RRM domain, GST-SBP tag (RBFOX2, Homo sapiens, UniProt O43251-10, residues 100-194)
Method: RNA Bind-n-Seq
Molecule type: RNA
Medium: in vitro
Concentration: 365 nM
Setting: natural RNA segment, single round, ends assumed
Relative to: no-protein control
Reading: higher = stronger binding
Endpoint: RBNS enrichment (R)
Constant ends, left off below: GGGAGUUCUACAGUCCGACGAUC … UGGAAUUCUCGGGUGCCAA
Construct (chain): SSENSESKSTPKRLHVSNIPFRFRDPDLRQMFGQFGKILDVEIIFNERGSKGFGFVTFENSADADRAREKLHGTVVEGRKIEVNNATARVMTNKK
AAGAAUCCCUUCAAGGAGAAAGGUGGCUGUCUGAUAAGCUGAUGGCAUGGAGCCCUGCCCUGAGUGUCUGUCCCUCUUCAGCCAAGCCCAAGUCUCCUAGACCCCCAGGG: 0.305
UAUGUAUUCUUCUCUACCGUAUAACACACUGAAACUGUAUCUACUUGCUGUGUUGCAAUAUUUUGCUGCUGGACUUUGACCUACUUGUAUUAUGCAGAAAGUUAAUGCAG: 0.505
UCUUCAGUGAUUUCCACAAUUGUGCAUUUUAUUCUUUGGUUUAAGUACUGAAGCAUAUAAUGAAAGUAAUUGCUAAGUAGCAGCUUAAAAAUUCAAUUAUCCGAUUGUAU: 0.392
CCGCUUUGCCCCAGUGAAGAGACAGCAUUCCUUCCUGUGCAGACCUGAGUGCAGAGUGUGUCCAUCUCGGCGUAUGGUGAAGGUGUCACUGGGUUCUGCAGCACUGGAGU: 4.13
CUGUUGGUAUAGCAUUUUCUAAGGAAACUACUCACUCAGCGCCUACCCUUUGUUAGAAGUGUUGACGCUCCAAGCACGCGUGUGAAGCACCAUGUAUCUUGGCCGGUUUC: 2.88
AAGAGAGCUUCCCAUUGCUUCUGCUCUCCUCAGAGGUCCCGGGCUGGAUGGAGGCUGGUACUUACCCACCCCUUUUAGCUUUUAGGGAUUAAGGAAGGGUCAAGCCAGCC: 0.338
GGUAGCUACCUCAUAACUUGUAAAGAAUCCAAUGAAUUAAAACACAGGUCUCAGUAUUAGCUUGUAUUACUGUACUAUCGAGUCCAUACACGGCUCUCUAAAGCCCUACA: 1.54
UGUAUUGUGGGCAGUUUUGUCAUUGUCCUCAAGUCCUUCGCAGACAGUGCACAGCCUGCUGUCUGCAGUCGGCCAGACCAGGCUCCUCCCCAGCACACUCCCUGUGGGAU: 0.391

Sample 2
Target: Fragile X messenger ribonucleoprotein 1, C-terminal low-complexity region (Fmr1, Mus musculus, UniProt P35922)
Method: RNA Bind-n-Seq
Molecule type: RNA
Medium: in vitro
Concentration: 200 nM
Setting: whole 134-nt RNA, ends assumed
Together with: 150 mM LiCl
Relative to: input library
Reading: higher = stronger binding
Endpoint: log2 enrichment
Library: 7-deaza-guanosine replaces G
Constant ends, left off below: GGGAGUUCUACAGUCCGACGAUC … UGGAAUUCUCGGGUGUCAAGG
UCCUCAAGUCCUGUGCUACACAUCGUAUGUACCGAAUCGGGUGGUGGGUGGGAAAGUAUUAUGUUACGCCGUUCGGAUCUGCACUUCCAG: 0.787
UCCUCAAGUCCUGUGCUACACAUCGUAUGUACCGAAUCGGUUUGGUGGUGGAAAGUAUUAUGUUACGCCGUUCGGAUCUGCACUUCCAGC: -0.133
CAAGUCCUGUGCUACACAUCGUAUGUACCGAAUCGGUGGAAAAAAAGGAAAAAGGAAAGUAUUAUGUUACGCCGUUCGGAUCUGCACUUC: -1.17
UAACUUUAGAGGAGGAUCUGAUGGAUAUGGCAGUGGACGUGGAUUUGGGGAUGGCUAUAAUGCGUAUGGAGGAGGACCUGGAGGUGGCAA: 0.804
UACCUUUAGAGGAGGAUCUGAUGGAUAUGGCAGUGGACGUGGAUUUGGGGAUGGCUAUAAUGGGUAUGGAGGAGGACCUGGAGGUGGCAA: 0.227
CCUCAAGUCCUGUGCUACACAUCGUAUGUACCGAAUCGGGGAGGGAGGGAGGGAAAGUAUUAUGUUACGCCGUUCGGAUCUGCACUUCCA: -1.48
UGGUUUUGGUGCCUGGCAUCGAAGAUGGUGUGUUCUUUCUGGAAACUGUAUAUCUUAUUGGACUUAUCCAGAUGAUGAGAAACGCAAGGU: -2.04
ACCAUGCAGGUGGGCAUCUUUGGGAAGUGGGGCAAGGGGGGGAUAGGGAGGGGGGUAACACUUUGGGAACAGGUGGUCCCAGGUAAAUUC: 1.22

Sample 3
Target: Interferon regulatory factor 5, full length, phosphomimetic (IRF5, Homo sapiens, UniProt Q13568-2, residues 1-514, K96S/S451D/S453D/S456D/S462D)
Method: protein-binding microarray
Molecule type: double-stranded DNA, one strand shown
Medium: in vitro
Concentration: 250 nM
Setting: 60-bp whole probe
Together with: salmon DNA 0.4 mg/ml
Relative to: random background probes
Reading: higher = stronger binding
Endpoint: log fluorescence
Constant ends, left off below: GCCTAGCAC … GTCTTGATTCGCTTGACGCTGCTG
GACGATTACGGGTTTCGAGACGTGCTA: 1.59 z-score
TTAGGTTTCGGATTCGGTTAGTGCTAG: 7.22 z-score
GACGCTTTCCTTATCCTGACGTGCTAG: 0.88 z-score
GACGGTTTCGGCTCCGGGACGTGCTAG: 5.66 z-score
TTCAGTTTCACTGCTGCCCTGTGCTAG: 5.48 z-score
GACGGATCCGGTTTCGGGACGTGCTAG: 3.37 z-score
TTTGGTTTCCTTTTCCTTTAGTGCTAG: 2.7 z-score
TCCAACCTGCTGAATCAAAAGTGCTAG: 0.22 z-score

Single results of other studies
CCN(CC)C(=O)/C(C#N)=C/c1cc(O)c(O)c([N+](=O)[O-])c1
viability (A-375; 100 µM, 18 h): 85.8%

Repeated from above (sample 1):
AAGAGAGCUUCCCAUUGCUUCUGCUCUCCUCAGAGGUCCCGGGCUGGAUGGAGGCUGGUACUUACCCACCCCUUUUAGCUUUUAGGGAUUAAGGAAGGGUCAAGCCAGCC: 0.338
CCGCUUUGCCCCAGUGAAGAGACAGCAUUCCUUCCUGUGCAGACCUGAGUGCAGAGUGUGUCCAUCUCGGCGUAUGGUGAAGGUGUCACUGGGUUCUGCAGCACUGGAGU: 4.13
UGUAUUGUGGGCAGUUUUGUCAUUGUCCUCAAGUCCUUCGCAGACAGUGCACAGCCUGCUGUCUGCAGUCGGCCAGACCAGGCUCCUCCCCAGCACACUCCCUGUGGGAU: 0.391
UAUGUAUUCUUCUCUACCGUAUAACACACUGAAACUGUAUCUACUUGCUGUGUUGCAAUAUUUUGCUGCUGGACUUUGACCUACUUGUAUUAUGCAGAAAGUUAAUGCAG: 0.505
